Published values of several laboratories.
Protocols differ between the studies behind these lines. ± marks the error that the study gave.
Matrix protein 2 S31N: Matrix protein 2 (Influenza A virus, UniProt P0DOF5, S31N)

SMILES = CCC1CC(c2ccc(C(=O)O)cc2C)=NN1c1ccc(C#N)c(Cl)c1 (centres unmarked); tested on = SARS-CoV-2; test = viral replication; system = Calu-3, B.1.617.2 Delta variant; conditions = 72 h; endpoint = EC50; value = 4.2 µM
SMILES = CC(C)(C)c1ccc(O)c(C(=O)Nc2ccc(CN)cc2)c1; tested on = SARS-CoV-2; test = viral replication; system = D614G; endpoint = EC50; value = 3.32 ± 1.97 µM
SMILES = CC(C)C(=O)OC[C@H]1O[C@@](C#N)(n2ccc(N)nc2=O)[C@H](O)[C@@H]1O; tested on = SARS-CoV-2; system = Calu-3, Delta; endpoint = EC50; value = 2.5 ± 0.1 µM
SMILES = Cc1nc(CNC23CC4CC(CC(C4)C2)C3)no1; tested on = Matrix protein 2 S31N; test = proton channel activity, inhibitor; system = Influenzavirus A, S31N mutant; conditions = 100 µM; endpoint = inhibition; value = 60%
SMILES = N#Cc1ccc(N2N=C3c4ccc(C(=O)O)cc4CCC3C2C2CCCC2)cc1Cl (centres unmarked); tested on = SARS-CoV-2; test = viral replication; system = Calu-3, B.1.617.2 Delta variant; conditions = 72 h; endpoint = EC50; value = 3.82 µM
SMILES = O=C(NC1CCN(c2ncnc3[nH]cnc23)CC1)c1cccc(NS(=O)(=O)c2ccc(C(F)(F)F)cc2)c1; tested on = SARS-CoV-2; test = viral replication; system = A549-ACE2, Wuhan-Hu-1; endpoint = EC50; value = 0.064 to 0.302 µM
SMILES = Cc1cc(C(=O)O)ccc1C1=NN(c2ccc(C#N)c(Cl)c2)C(C)C1 (centres unmarked); tested on = SARS-CoV-2; test = viral replication; system = Calu-3, B.1.617.2 Delta variant; conditions = 72 h; endpoint = EC50; value = 29.2 µM
SMILES = Oc1ccc(CCCCCCCCC(O)c2c(O)cccc2O)cc1O (centres unmarked); tested on = SARS-CoV-2; test = viral replication, MTT; system = HEK293T ACE2, Alpha B.1.1.7; endpoint = EC50; value = 7.3 µM
SMILES = Cc1ccc(N2CC3CCC(C2)N3C)cc1C(=O)N[C@H](C)c1cc(-c2cnn(C)c2)nc2ccccc12; tested on = SARS-CoV-2; test = viral replication; system = Nsp5 L50F/E166V; endpoint = EC50; value = 0.47 µM
SMILES = O=c1[nH]cnc2c(C3NC(COP(=O)(O)OP(=O)(O)OP(=O)(O)O)C(O)C3O)c[nH]c12 (centres unmarked); tested on = SARS-CoV-2; test = infectious virus yield; system = Vero C1008, Omicron BA.1; conditions = 48 h; endpoint = EC50; value = 0.38 ± 0.02 µM
SMILES = CC1CC(c2ccc(S(N)(=O)=O)cc2)=NN1c1ccc(C#N)c(Cl)c1 (centres unmarked); tested on = SARS-CoV-2; test = viral replication; system = Calu-3, B.1.617.2 Delta variant; conditions = 72 h; endpoint = EC50; value = > 100 µM
SMILES = O=C(CCCCCCCCCCc1ccc(O)c(O)c1)c1c(O)cccc1O; tested on = SARS-CoV-2; test = viral replication, MTT; system = HEK293T ACE2, Gamma P.1; endpoint = EC50; value = 16 µM
SMILES = Brc1nc(CNC23CC4CC(CC(C4)C2)C3)cs1; tested on = Matrix protein 2 S31N; test = proton channel activity, inhibitor; system = Influenzavirus A, S31N mutant; conditions = 100 µM; endpoint = inhibition; value = 38%
SMILES = O=C(CCCCCCc1ccc(O)c(O)c1)c1c(O)cccc1O; tested on = SARS-CoV-2; test = viral replication, MTT; system = HEK293T ACE2, Alpha B.1.1.7; endpoint = EC50; value = 2.9 µM
SMILES = N#CC1(c2ccc3c(N)ncnn23)OC(COP(=O)(O)OP(=O)(O)OP(=O)(O)O)C(O)C1O (centres unmarked); tested on = SARS-CoV-2; test = infectious virus yield; system = Vero C1008, Omicron BA.1; conditions = 48 h; endpoint = EC50; value = 1.7 ± 0.08 µM
SMILES = CC(C)c1ccc(C(=O)Nc2ccc(CN)cc2)c(O)c1; tested on = SARS-CoV-2; test = viral replication; system = D614G; endpoint = EC50; value = 9.91 ± 1.07 µM
SMILES = CC(=O)Oc1ccc(CCCCCCCCC(=O)c2c(OC(C)=O)cccc2OC(C)=O)cc1OC(C)=O; tested on = SARS-CoV-2; test = viral replication, MTT; system = HEK293T ACE2, Alpha B.1.1.7; endpoint = EC50; value = 1.4 µM
